Assay results from different studies.
Every numbered part comes from another study and shows a few of its results, in no order.

Series 1 — method: universal PBM; molecule type: double-stranded DNA, one strand shown; sample: in vitro; tested at: not given; reading: higher = stronger binding
Target: Sal-like protein 4, full length isoform B (SALL4, Homo sapiens, UniProt Q9UJQ4-2, residues 1-616)
Notes: 8-mer, flanks averaged, mean of replicates
Sequence	E-score
AGCCGACT	-0.278
ATGTTCAA	0.128
CTCTGTCA	-0.0314
ACATCGGG	-0.261
AGTGCGGC	-0.298
TATCCTAA	0.193
GCAGCGCC	-0.314
AGGCGCGC	-0.163
TACTCCGA	-0.141
AAGGCCTC	-0.157
CCGCCCGG	-0.358
ATTCACTA	0.119
ACGCCGCA	-0.243
ATTGTGGG	0.0308
CGTTGCTC	-0.201
GCGGTCTA	-0.0166
AACGAATC	0.137
AGCCCCAC	-0.324
AAGAGTAT	0.251
ACACGGAC	-0.0155
CGAGTAGA	-0.138
AGCGCTTG	-0.168
CCCTACAC	0.0347
ACATTGGT	0.0238
AAACTAAC	0.104

Series 2 — method: RNA Bind-n-Seq; molecule type: RNA; sample: in vitro; tested at: not given; relative to: input RNA pool; reading: higher = stronger binding
Target: RING finger protein unkempt homolog, zinc fingers 1-6, GST-SBP tag (UNK, Homo sapiens, UniProt Q9C0B0, residues 30-357)
Sequence of UniProt Q9C0B0 (30-357, looked up): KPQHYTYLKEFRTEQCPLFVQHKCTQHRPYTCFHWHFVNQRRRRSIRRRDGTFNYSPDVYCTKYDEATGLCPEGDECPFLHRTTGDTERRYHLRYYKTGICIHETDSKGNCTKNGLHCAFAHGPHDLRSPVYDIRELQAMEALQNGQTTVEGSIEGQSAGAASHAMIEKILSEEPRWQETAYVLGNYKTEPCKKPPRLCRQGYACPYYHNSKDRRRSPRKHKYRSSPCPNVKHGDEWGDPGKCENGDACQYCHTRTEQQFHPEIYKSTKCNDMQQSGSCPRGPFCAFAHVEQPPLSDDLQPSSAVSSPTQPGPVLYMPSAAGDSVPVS
Notes: RNA with constant flanks, human and mouse sites, ends assumed
Shared flanks, not repeated: GGGAGUUCUACAGUCCGACGAUC … CAACAGAGGAUUGAGCAUCA
Sequence	bound/input enrichment [ratio]
CCUGGUGGGCAUGUGGGCCGUUUCUGCAUCUGGACGGAGAGUGCUUUCCGGAAGUUGGAUGAGCUGUAUGGCACUUGGCGGAAGGCUGCUUCCCUCAAGAGUAACUAUAACCUGCCCAUG	0.176
AAGUGUCUUUUCAUUCAGGGAAAACUGUUGUUUGCCGAGCCCAAGGAUGCGGGCUUUCCAUUUAGCCAGGAUAUCAAUAGCCAUUUGGCCAGCCUCUCAAUGGCUAGAAACACGAGCCCC	0.243
CGAUUACACAGGGUCAAGACCGUCUGCAGCAAGCACAUGCAUCCCCUCCGACUGGUGUGAGUAGUAAGAAAAGCACACACAGACAGGAGGACAUCUGGAGCCACACAAACUGGGUGGAAA	0.11
GAUACAGUAAUUAUGAAUCCUCCCUUUGGGACCAAAAAUAAUAAAGGGACAGAUAUGGCUUUUCUAAAGACUGCUUUGGAAAUGGCAAGAACAGCAGUAUAUUCCUUACACAAAUCCUCA	0.138
AUUUGUUUAAAUUUUUUUCAUUCUUUAAUUUUGUUAUCAGUGCCAGCCCAAUAUACCUGCUCUACCAUUAUUUGCGGUCUGAUAAAAGGGUCCUUGUGGGGCAGGUUUUGCAAAGCUUAU	9.39
CUAAGGGCUAAGGCCUCUUGCUGGUGCACAUGACAUUUGUCCUGCAGAGCUGGGGGGAAGGCGAUGUGGUGACCCCACCCCCACCCGUUAAUUUAAAGCUGUUUCUAAACAGUUGAGUUU	0.218
AAUUAUGUACUGCAAAAAUUUUUUUAAAUCUUCCGCCUUAAUACUUCAUUUUUGUUUUUAAUUUCUGAAUGGCCCAGGUCUGAGGCCUCCCUUUUUUUUGUCCCCCCAACUUGAUGUAUG	4.09
ACAUAGCUGACUCUCCACUCAAUUUUGUUGUUGUUGUUGUCGUCAUUUUUCACAAUACUUUAGCAAAUUUUUUAUCUUAUGGGGGACUCGGUUUCUUUUCACAUGUGAUUUCUGGGAGGC	12.2
GUCUCCUACACUUGAGGAUCAAGAGCGUCAUUUACUUGUGAAAGUUAUUGAUAGGAUACUGUACAAACUUGAUGACUUAGUUCGUCCAUAUGUGCAUAAGAUCCUCGUGGUCAUUGAACC	0.19
ACAGUUGUGCCACAAGUGCCCACCUCUCCCAAAUCCAGCCUUAGUGUCCAGCCUGGAUUCCUGGCUGACCUCAACAGGACACUGCAACGAAAGUCCAUCACUCGGCACGGCUCACUCUCC	0.154
GCCGGAAACAAACCGGAAGCAGUAGAAGUAACAUUUGCAGAUUUCGAUGGGGUCCUCUAUCAUAUUUCAAAUCCUAAUGGAGACAAAACAAAAGUGAUGGUCAGUAUUUCUUUGAAAUUC	0.621

Series 3 — method: protein-binding microarray; molecule type: double-stranded DNA, one strand shown; sample: in vitro; tested at: 940 nM top; notes: 60-bp whole probe; with: salmon DNA 0.4 mg/ml; relative to: random background probes; reading: higher = stronger binding; shared flanks, not repeated: GCCTAGCAC … GTCTTGATTCGCTTGACGCTGCTG
Target: Interferon regulatory factor 5, full length, phosphomimetic (IRF5, Homo sapiens, UniProt Q13568-2, residues 1-514, S451D/S453D/S456D/S462D)
Sequence	fitted relative affinity [z-score]
GACAGTCTCGGTTTCGGGACGTGCTAG	8.1
CATCCTGAGTCAAGTCAAGTGTGCTAG	-0.618
TTTGGTATCGGGTATCGGTTAGTGCTA	10.1
TTTCATATATATATGAATATGTGCTAG	5.16
GACGATATCCGTCTCGAGACGTGCTAG	0.405
TTAGATTTCGAGACTGGATTAGTGCTA	0.785
TTGGGTTCCGGTTTCGGTTAGTGCTAG	9.37
AGATTTTTCTCAACCGTTGTGTGCTAG	0.414
TTAGGATTGCTTCTCCTTTAGTGCTAG	-0.265
TTAGATTTCGGGACTGGATTTGTGCTA	0.536
GACGATATCCGGACTGGAGACGTGCTA	0.0644
GACGATTGCAGTATCGAGACGTGCTAG	1.34
TTAGAGATCGGGTATCGATTAGTGCTA	2.78
GACGGTCACGGTATCGGGACGTGCTAG	0.705
TCATCTATGTCTGTTTTACTGTGCTAG	0.909
TCACCTCTGCTCCTCTTACTGTGCTAG	0.909
GACGGTATCCCTATCCTGACGTGCTAG	0.643
ATCTTCATGAAATTTTAGTAAGTGCTA	-0.145
GACCATATCAGTCTCGAGACGTGCTAG	1.6
TCAGCTTCCTAATTCTCACTGTGCTAG	0.791
TTAGAGCTGGGGTTTCGATTAGTGCTA	4.9
TTGGGTTTCCTACTGCTTTAGTGCTAG	0.668

Series 4 — method: RNA Bind-n-Seq; molecule type: RNA; sample: in vitro; tested at: 1 µM; notes: whole 134-nt RNA, ends assumed; with: 150 mM KCl; relative to: input library; reading: higher = stronger binding
Target: Ras GTPase-activating protein-binding protein 1, C-terminal RGG region (G3BP1, Homo sapiens, UniProt Q13283)
Sequence of UniProt Q13283 (whole entry, looked up): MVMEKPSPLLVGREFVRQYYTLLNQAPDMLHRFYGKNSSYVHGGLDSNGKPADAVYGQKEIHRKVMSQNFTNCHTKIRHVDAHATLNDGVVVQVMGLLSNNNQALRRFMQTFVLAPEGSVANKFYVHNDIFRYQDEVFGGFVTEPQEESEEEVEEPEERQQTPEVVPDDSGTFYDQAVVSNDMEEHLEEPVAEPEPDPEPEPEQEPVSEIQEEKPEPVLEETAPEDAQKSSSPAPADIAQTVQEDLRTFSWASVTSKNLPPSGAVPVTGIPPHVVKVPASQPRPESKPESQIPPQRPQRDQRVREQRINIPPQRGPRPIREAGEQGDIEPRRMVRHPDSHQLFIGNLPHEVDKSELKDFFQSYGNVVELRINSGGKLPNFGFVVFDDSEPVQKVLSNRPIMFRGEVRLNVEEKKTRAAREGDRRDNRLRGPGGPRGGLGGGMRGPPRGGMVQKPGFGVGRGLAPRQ
Shared flanks, not repeated: GGGAGUUCUACAGUCCGACGAUC … UGGAAUUCUCGGGUGUCAAGG
Sequence	log2 enrichment
UGGGAGGUGGAUUUUGUUUUUUUUUUUAGCUCAUUUCCAGGGGUGGGAAUUUUUUUUUAAUAUGUGUCAUGAAUAAAGUUGUUUUUGAAA	2.02
AAGUCCUGUGCUACACAUCGUAUGUACCGAAUCGGGAAAAGGAAAAGGGGAAAAGGAAAGUAUUAUGUUACGCCGUUCGGAUCUGCACUU	-1.7
CACAGACAACACGCACCCACACAGACACAGAGGGAAGGGGUUGGGAUGGGGACAGGGUGCACAGCAGGGCGGGGUAGGACCCCAGACCCU	-1.4
UGGCCCUGGUGGCAUGCGGGGAGCAAGAGGUGGCCUCAUGGAUCGUGGUGGUCCCGGUGGAAUGUUCAGAGGUGGCCGUGGUGGAGACAG	2.27
UCCUCAAGUCCUGUGCUACACAUCGUAUGUACCGAAUCGGCGGCGGGGCGGGAAAGUAUUAUGUUACGCCGUUCGGAUCUGCACUUCCAG	-0.263
CCUGUGCUACACAUCGUAUGUACCGAAUCGGGGCCCCCCGGGCCCCCCGGGGCCCCCCGGAAAGUAUUAUGUUACGCCGUUCGGAUCUGC	-1.97
AAGUCCUGUGCUACACAUCGUAUGUACCGAAUCGGGUGGGAAAAAGGGUUUUUGGGAAAGUAUUAUGUUACGCCGUUCGGAUCUGCACUU	0.829
CACAGACAACACGCACCCACACAGACACAGAGGGAAGGGGUUGGGAUGGGGACAGGGUGCACAGCAGGGCAGGGUAGGACCCCAGCCCCU	-1.23
UAACUUUAGAGGAGGAUCUGAUGGAUAUGGCAGUGGACGUGGAUUUGGGGAUGGCUAUAAGGGGUAUGGAGGAGGACCUGGAGGUGGCAA	-0.653
GUCCUGUGCUACACAUCGUAUGUACCGAAUCGGGGUUUUUUUGGGGUGGGGUUUGGGGAAAGUAUUAUGUUACGCCGUUCGGAUCUGCAC	2.08
UCCUGUGCUACACAUCGUAUGUACCGAAUCGGGAAAAAGGGUUUUUUUGGGUUUUUGGGAAAGUAUUAUGUUACGCCGUUCGGAUCUGCA	-0.78
CUGUGCUACACAUCGUAUGUACCGAAUCGGGGUUUUUUGGGGUUUUUUGGGUUUUUUGGGGAAAGUAUUAUGUUACGCCGUUCGGAUCUG	-0.782
UUCUCUAAGAGGAACUCCGGCGCGUCAGAGUAACAGAAGCGAGAGCACAGACAGUCUUGGGGGCUUGUCUCCCUCUGAAGUCACAGCCAU	-0.279
UCCUGUGCUACACAUCGUAUGUACCGAAUCGGGAAAAAAAGGGUUUGGGAAAAAAAGGGAAAGUAUUAUGUUACGCCGUUCGGAUCUGCA	-0.934

For quick reference, copied from above (series 3):
Sequence	fitted relative affinity [z-score]
TTAGAGATCGGGTATCGATTAGTGCTA	2.78
GACGGTCACGGTATCGGGACGTGCTAG	0.705
TCATCTATGTCTGTTTTACTGTGCTAG	0.909
TCACCTCTGCTCCTCTTACTGTGCTAG	0.909
GACGGTATCCCTATCCTGACGTGCTAG	0.643
ATCTTCATGAAATTTTAGTAAGTGCTA	-0.145
GACCATATCAGTCTCGAGACGTGCTAG	1.6
TCAGCTTCCTAATTCTCACTGTGCTAG	0.791
TTAGAGCTGGGGTTTCGATTAGTGCTA	4.9
